Assay results collected from several papers.
Each line is one published result; not all experiments were run side by side. ± gives the spread as reported.

CCN1CCCC1CNC(=O)c1cc(Br)cc(OC)c1O[11CH3] (stereo not drawn)  k2 tissue-to-plasma efflux (PET; rhesus monkey, brain, mean of regions): 0.18 min⁻¹
CC[C@H](C)[C@@H]1NC(=O)[C@H](CCCCN)NC(=O)[C@H](CCCCN)NC(=O)[C@H](Cc2ccc(O)cc2)NC(=O)[C@H](CC(C)C)NC(=O)[C@@H]2CCCN2C(=O)CNC(=O)CNC(=O)[C@@H](NC(=O)CN)CSSC[C@@H](C(=O)N[C@@H](CCC(=O)O)C(=O)N[C@@H](CO)C(N)=O)NC(=O)[C@H](CC(C)C)NC(=O)[C@H](CCCCN)NC(=O)[C@H](CCCCN)NC(=O)[C@H]([C@@H](C)CC)NC(=O)[C@H]([C@@H](C)CC)NC(=O)[C@H](CCCCN)NC(=O)[C@H](CCCCN)NC(=O)[C@H](Cc2ccc(O)cc2)NC(=O)[C@H](CC(C)C)NC(=O)[C@@H]2CCCN2C(=O)[C@H](C)NC(=O)CNC(=O)CNC(=O)[C@H](CO)NC(=O)CNC(=O)CNC(=O)[C@H](CO)NC(=O)[C@H](CCCCN)NC(=O)[C@H](CC(C)C)NC(=O)[C@H](CC(C)C)NC(=O)[C@H](CCCCN)NC(=O)[C@H](CCCCN)NC(=O)[C@H]([C@@H](C)CC)NC1=O  remaining intact peptide (25% human serum; 50 µM, 24 h; reference: 0 h control): 0%
CC[C@H](C)[C@H](NC(=O)[C@H](CC(=O)O)NC(=O)[C@H](CO)NC(=O)[C@H](CCC(N)=O)NC(=O)[C@H](C)NC(=O)[C@H](CC(=O)O)NC(=O)[C@H](CCC(=O)O)NC(=O)[C@H](Cc1c[nH]cn1)NC(=O)[C@H](Cc1ccc(O)cc1)NC(=O)[C@H](C)NC(=O)[C@H](CC(=O)O)NC(=O)[C@H](CCC(=O)O)NC(=O)[C@H](Cc1c[nH]cn1)NC(=O)[C@H](Cc1ccc(O)cc1)NC(=O)[C@H](C)NC(=O)[C@H](CC(=O)O)NC(=O)[C@H](CCC(=O)O)NC(=O)[C@H](Cc1c[nH]cn1)NC(=O)[C@H](Cc1ccc(O)cc1)NC(=O)[C@H](C)NC(=O)[C@H](CC(=O)O)NC(=O)[C@H](CCC(=O)O)NC(=O)[C@H](Cc1c[nH]cn1)NC(=O)[C@H](Cc1ccc(O)cc1)NC(=O)[C@H](C)NC(=O)[C@H](CC(=O)O)NC(=O)[C@H](CCC(=O)O)NC(=O)[C@H](Cc1c[nH]cn1)NC(=O)[C@@H](N)Cc1ccc(O)cc1)C(=O)N[C@H](C(=O)N[C@@H](C)C(=O)N[C@@H](Cc1c[nH]cn1)C(=O)N[C@@H](CC(C)C)C(=O)N[C@@H](CC(C)C)C(=O)O)C(C)C  MCV (mouse, SN model; dose not given): 48.4 ± 5.4 fL
COC(=O)C[C@](O)(CCCC(C)(C)OC(C)=O)C(=O)O[C@@H]1C(OC)=C[C@]23CCCN2CCc2cc4c(cc2[C@H]13)OCO4  tissue concentration (CD1 mouse, spleen; oral, 1 mg/kg, 24 h, below quantification limit 1.00 ng/mL): not detected
O=C(NCCCCCCCn1ccc2ccccc21)Oc1ccccc1  parent remaining (porcine plasma; 20 µM, 30 min): 39 ± 7%
CN[C@](C)(C[18F])C(=O)O  tissue uptake (SCID mouse U87 xenograft, kidney; 15 min, post injection): 18 ± 2.7 %ID/g
CC(C)[C@@H]1NC(=O)[C@H](Cc2ccccc2)NC(=O)[C@H](Cc2ccc(O)cc2)NC(=O)CCSSC[C@@H](C(=O)N2CCC[C@H]2C(=O)N[C@H](CCCNC(=N)N)C(=O)NCC(N)=O)NC(=O)[C@H](CCC(N)=O)NC1=O  AST (Wistar rat, blood; intravenous, 100 µg/kg single dose, 72 h): 46.6 ± 20.1 IU/L
COc1ccc(F)cc1S(=O)(=O)Nc1cnc2c(c1)C(=O)NCCO2  fraction unbound (monkey, plasma; 10 min): 0.128 to 0.137
CC[C@@H]1C[C@]1(NC(=O)[C@@H]1C[C@@]2(CN1C(=O)[C@@H](NC(=O)[C@@H](NC(=O)[C@@H]1CCCCN1C(C)C)C1CCCCC1)C(C)(C)C)C(C)(C)C21CCC1)C(=O)NS(=O)(=O)N1CCCC1  subjects with adverse event (refers to: vomiting; human fasted; oral, 100 mg single dose): 0%
CCN(CC)c1ccc2c(-c3ccccc3C(=O)OCCOCC[18F])c3ccc(=[N+](CC)CC)cc-3oc2c1  radioactivity concentration (microPET; rat, liver; dose not given, 5 min post injection): 59 ± 2 kBq/cm³
[3H]c1sc(C)nc1C=C(C)C1CC2C(CCCC(C)C(O)C(C)C(=O)C(C)(C)C(O)CC(=O)O1)N2CCO (stereo not drawn)  radioactivity in tissue (whole-body autoradiography; CD2F1 mice, M109 FR− tumour periphery; intravenous, 2.2 nmol/kg, 24 h): 1.6 ± 0.7 µg-eq/g
CC[C@H](C)[C@H](NC(=O)[C@H](Cc1ccccc1)NC(=O)[C@H](CC(=O)O)NC(=O)[C@H](CCN)NC(=O)[C@H](Cc1ccccc1)NC(=O)[C@H](Cc1ccccc1)NC(=O)[C@H](CCCCN)NC(=O)[C@H](CCCN)NC(=O)[C@H](CC(C)C)NC(=O)[C@H](CCCNC(=N)N)NC(=O)[C@H](CCSC)NC(=O)[C@H](C)N)C(=O)N[C@@H](CC(C)C)C(=O)N[C@@H](CCC(N)=O)C(=O)N[C@@H](CCCNC(=N)N)C(=O)N[C@@H](CCCCN)C(=O)N[C@@H](CCCCN)C(=O)O  helicity (circular dichroism; 20% TFE in PBS; 200 µM, pH 7.4, 25 °C): 17.9%
CCC(CC)OC1C=C(C(=O)OC(C)OC(=O)C(N)C(C)C)CC(NC(=N)N)C1NC(C)=O (mixture of isomers)  oral bioavailability (mouse (fed); oral, 10 mg/kg; reference: 1 mg/kg intravenous): 23%
CC(C)C[C@H](NC(=O)[C@H](CCCCN)NC(=O)[C@H](CCC(=O)O)NC(=O)[C@H](C)NC(=O)[C@@H](NC(=O)[C@H](CCCCN)NC(=O)[C@H](CC(=O)O)NC(=O)[C@H](Cc1ccc(O)cc1)NC(=O)[C@H](Cc1ccccc1)NC(=O)[C@H](C)NC(=O)[C@H](CCCCN)NC(=O)[C@H](CC(C)C)NC(=O)[C@H](Cc1c[nH]c2ccccc12)NC(=O)[C@@H](N)CC(=O)O)C(C)C)C(=O)N[C@@H](CCCCN)C(=O)N[C@@H](CCC(=O)O)C(=O)N[C@@H](C)C(=O)N[C@@H](Cc1ccccc1)C(=O)N1CCC[C@H]1C(=O)N[C@@H](CC(=O)O)C(=O)N[C@@H](Cc1c[nH]c2ccccc12)C(=O)N[C@@H](C)C(=O)N[C@@H](CCCCN)C(=O)N[C@@H](C)C(=O)N[C@@H](C)C(=O)N[C@@H](Cc1ccc(O)cc1)C(=O)N[C@@H](CC(=O)O)C(=O)N[C@@H](CCCCN)C(=O)N[C@@H](C)C(=O)N[C@@H](C)C(=O)N[C@@H](CCC(=O)O)C(=O)N[C@@H](CCCCN)C(=O)N[C@@H](C)C(=O)N[C@@H](CCCCN)C(=O)N[C@@H](CCC(=O)O)C(=O)N[C@@H](C)C(=O)N[C@@H](C)C(=O)O  clearance (cynomolgus monkey female, plasma; intravenous infusion, 25 mg/kg every other day, day 27): 0.117 mL/min/kg
CCN(Cc1ccccc1)C(=O)CCc1nc(CN2CCN(C(=O)Cc3ccc(OC)c(OC)c3)CC2)no1  concentration (LC-MS; rat, DRG; intravenous, 1 mg/kg, 0.5 h): 92 ± 1.7 ng/g
O=c1c(-c2cnn(-c3ccccc3)c2)c(C(F)(F)F)oc2c(O)c(O)ccc12  no adverse effect level (BALB/c nude mouse, female; intraperitoneal, 7 d): 50 mg/kg
CCCCCCCCCCCCC(=O)O.O=C1CCCC2C3CCCN4CCCC(CN12)C34 (stereo not drawn)  entropic term −TΔS of aggregation (electrical conductivity; water; 313.15 K): -8.32 kcal/mol
CN(C)C(CNC(=O)Nc1cc(C(F)(F)F)ccc1N1CCOCC1)c1ccncc1 (stereo not drawn)  creatine kinase (mouse, serum; intraperitoneal, 240 mg/kg single dose): 8840 U/L
CCCC[C@@H]1NC(=O)[C@H](Cc2ccc(O)cc2)NC(=O)[C@@H]2CCCN2C(=O)[C@H](CC(=O)O)NC(=O)[C@H](C)NC(=O)[C@H](Cc2ccccc2)NC(=O)[C@@H]2CSCCC(=O)N3CN(CN(C3)C(=O)CCSC[C@@H](C(=O)N[C@@H](C)C(N)=O)NC1=O)C(=O)CCSC[C@H](NC(C)=O)C(=O)N[C@@H](CC(C)(C)C)C(=O)N1CCC[C@H]1C(=O)N[C@@H](CCC(=O)O)C(=O)N[C@H](CCCCNC(=O)CCc1cn(CCOCCOCCOCCN(CCOCCOCCOCCC(=O)N[C@H]3CSCCC(=O)N4CN5CN(C4)C(=O)CCSC[C@H](NC(=O)[C@@H](CC(=O)O)NC(=O)[C@H](Cc4cccc6ccccc46)NC(=O)[C@@H]4CCCN4C3=O)C(=O)N[C@@H](CCSC)C(=O)N[C@@H](CCCCNC(=N)N)C(=O)N[C@@H](CC(=O)O)C(=O)N[C@@H](Cc3c[nH]c4ccccc34)C(=O)N[C@@H](CO)C(=O)N[C@@H]([C@@H](C)O)C(=O)N3CCC[C@H]3C(=O)N3C[C@H](O)C[C@H]3C(=O)N[C@@H](Cc3c[nH]c4ccccc34)C(=O)N[C@H](C(N)=O)CSCCC5=O)CCOCCOCCOCCn3cc(CCC(=O)NCCCC[C@H]4NC(=O)[C@H](CCC(=O)O)NC(=O)[C@@H]5CCCN5C(=O)[C@H](CC(C)(C)C)NC(=O)[C@@H](NC(C)=O)CSCCC(=O)N5CN6CN(C5)C(=O)CCSC[C@H](NC(=O)[C@H](Cc5ccc(O)cc5)NC(=O)[C@@H]5CCCN5C4=O)C(=O)N[C@@H](Cc4ccccc4)C(=O)N[C@@H](C)C(=O)N[C@@H](CC(=O)O)C(=O)N4CCC[C@H]4C(=O)N[C@@H](Cc4ccc(O)cc4)C(=O)N[C@@H](CCCC)C(=O)N[C@H](C(=O)N[C@@H](C)C(N)=O)CSCCC6=O)nn3)nn1)C(=O)N1CCC[C@H]1C(=O)N[C@@H](Cc1ccc(O)cc1)C(=O)N2  liver enzymes (refers to: ALT, AST, alkaline phosphatase; mouse, CT26-Nectin-4 syngeneic tumour, blood; dose not given, day 15): no effect
O=P1(NCCCl)NCCCO1 (stereo not drawn)  MRT(0-t) (rat, plasma; intravenous, 10 mg/kg CP, with: ketoconazole 0 mg/kg): 3.9 ± 0.223 h
c1ccc(C2(CCNC3CCC4(SCCS4)c4ccccc43)CCOC3(CCCC3)C2)nc1 (stereo not drawn)  AUC(0-24 h) (rat; intravenous, 0.05 mg/kg): 47.6 ng·h/mL
